# Results gathered from unrelated publications.
# Parts stem from different laboratories: compare values within a part only. Values joined by “and” are separate records of one study, mostly repeats; a detail may differ. Numbers after ± are the reported error.
# UniProt Q06187, sequence (whole entry, looked up): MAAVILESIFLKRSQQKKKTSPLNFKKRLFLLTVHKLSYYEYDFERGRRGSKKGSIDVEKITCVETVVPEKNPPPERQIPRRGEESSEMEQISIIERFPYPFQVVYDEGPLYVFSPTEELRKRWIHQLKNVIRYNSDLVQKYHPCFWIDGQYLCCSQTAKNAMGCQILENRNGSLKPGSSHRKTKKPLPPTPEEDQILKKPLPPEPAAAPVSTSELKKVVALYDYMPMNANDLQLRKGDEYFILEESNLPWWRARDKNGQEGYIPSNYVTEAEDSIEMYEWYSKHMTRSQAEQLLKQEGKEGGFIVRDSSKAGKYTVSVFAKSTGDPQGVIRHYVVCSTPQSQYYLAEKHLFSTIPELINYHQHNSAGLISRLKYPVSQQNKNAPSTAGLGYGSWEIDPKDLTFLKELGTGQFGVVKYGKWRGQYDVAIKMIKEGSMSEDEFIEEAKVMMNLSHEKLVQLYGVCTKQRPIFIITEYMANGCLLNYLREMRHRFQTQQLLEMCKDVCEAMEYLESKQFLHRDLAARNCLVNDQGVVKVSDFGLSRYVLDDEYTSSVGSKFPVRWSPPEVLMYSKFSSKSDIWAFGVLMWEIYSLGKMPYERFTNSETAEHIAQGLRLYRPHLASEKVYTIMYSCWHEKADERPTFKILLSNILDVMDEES

# Study 1 — read-out: thermal unfolding; method: differential scanning fluorimetry; tested at: 5.5 µM; direction: higher = more unfolded
# SMILES: C[C@@H]1CN(c2ccc(-c3cc(C(=O)NCCOCCOCCOCCOCCNC(=O)Cn4cc(-c5[nH]cc(C(=O)N[C@@H](CC(N)=O)c6ccc(F)c(Cl)c6)c5-c5ccc(Cl)cc5F)cn4)ccc3F)cc2NC(=O)c2c[nH]c(=O)cc2C(F)(F)F)C[C@H](C)N1C
# WDR5: WD repeat-containing protein 5 (WDR5, Homo sapiens, UniProt P61964)
# DCAF1: DDB1- and CUL4-associated factor 1 (DCAF1, Homo sapiens, UniProt Q9Y4B6)
# UniProt Q9Y4B6, sequence (whole entry, looked up): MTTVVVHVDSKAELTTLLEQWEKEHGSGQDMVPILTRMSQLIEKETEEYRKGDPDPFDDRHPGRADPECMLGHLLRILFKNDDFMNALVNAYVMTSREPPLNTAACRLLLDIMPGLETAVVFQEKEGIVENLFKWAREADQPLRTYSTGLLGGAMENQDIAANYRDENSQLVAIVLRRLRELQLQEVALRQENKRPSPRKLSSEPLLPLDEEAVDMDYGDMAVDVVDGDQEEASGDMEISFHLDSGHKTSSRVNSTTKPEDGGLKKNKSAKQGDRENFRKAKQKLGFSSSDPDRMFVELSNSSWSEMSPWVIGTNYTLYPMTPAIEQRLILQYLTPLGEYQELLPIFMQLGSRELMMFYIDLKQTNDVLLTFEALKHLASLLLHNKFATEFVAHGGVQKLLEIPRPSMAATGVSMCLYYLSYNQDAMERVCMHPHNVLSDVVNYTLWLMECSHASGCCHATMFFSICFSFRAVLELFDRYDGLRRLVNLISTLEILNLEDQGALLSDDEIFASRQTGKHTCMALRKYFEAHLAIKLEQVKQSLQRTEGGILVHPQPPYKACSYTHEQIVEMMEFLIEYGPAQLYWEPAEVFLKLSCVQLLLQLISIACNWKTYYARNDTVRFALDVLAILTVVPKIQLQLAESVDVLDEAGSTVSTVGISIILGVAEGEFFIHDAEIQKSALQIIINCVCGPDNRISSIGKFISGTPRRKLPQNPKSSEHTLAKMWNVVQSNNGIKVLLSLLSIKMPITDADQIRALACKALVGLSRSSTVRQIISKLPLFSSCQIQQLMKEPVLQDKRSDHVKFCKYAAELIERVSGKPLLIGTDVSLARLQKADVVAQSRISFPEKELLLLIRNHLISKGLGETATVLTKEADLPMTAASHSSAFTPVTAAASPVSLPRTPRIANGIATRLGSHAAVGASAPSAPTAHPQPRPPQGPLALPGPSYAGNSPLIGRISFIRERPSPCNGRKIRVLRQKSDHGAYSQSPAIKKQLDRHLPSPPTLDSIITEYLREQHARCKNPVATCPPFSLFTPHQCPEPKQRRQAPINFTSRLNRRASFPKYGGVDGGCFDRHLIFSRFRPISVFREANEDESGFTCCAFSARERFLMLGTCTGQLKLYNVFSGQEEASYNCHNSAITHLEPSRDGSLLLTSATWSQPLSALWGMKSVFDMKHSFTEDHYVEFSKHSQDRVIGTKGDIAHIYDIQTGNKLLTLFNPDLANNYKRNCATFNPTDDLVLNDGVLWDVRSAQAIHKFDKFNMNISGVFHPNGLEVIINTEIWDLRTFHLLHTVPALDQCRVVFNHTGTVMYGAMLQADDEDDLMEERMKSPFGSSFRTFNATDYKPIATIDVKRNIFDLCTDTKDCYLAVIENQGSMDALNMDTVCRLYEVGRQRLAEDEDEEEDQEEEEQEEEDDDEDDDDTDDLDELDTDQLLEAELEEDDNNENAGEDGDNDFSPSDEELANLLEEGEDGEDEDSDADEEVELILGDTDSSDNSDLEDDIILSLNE
target,conditions,SYPRO Orange fluorescence [a.u.]
WDR5,86.21 °C,41800
DCAF1,92.21 °C,33000
DCAF1,29.2 °C,8100
WDR5,69.01 °C,6730

# Other studies, line by line
SMILES,tested on,test,test system,conditions,how to read,measurement,result
CCCN1C(=O)C(O)(C(=O)O)Oc2cc(F)ccc21 (centres unmarked),Arabidopsis thaliana,,,"foliar spray, 200 µg/mL, 20 days",,fresh weight inhibition,54.1%
Cc1nc(C)c(C=[N+]([O-])C(C)(C)C)nc1C,,footprint test,MPTP-induced Parkinson's disease mouse model,"30 mg/kg, mean of three trials",,corridor crossing time,6.45 s and 5.36 s and 5.06 s and 5.93 s and 5.1 s and 5.65 s and 6.09 s and 5.01 s
CCOc1ccc2nc(Sc3nc(Nc4ccc(I)cc4)nc(N4CCOCC4)n3)sc2c1,L444P/L444P Gaucher fibroblasts,4-MUG hydrolysis in lysate,,"10 µM, 72 h",baseline: vehicle,enzyme activity,203% and 255% and 264% and 217% and 165% and 262% and 278%
CC(C)(C=C(C#N)C(=O)N1CCCC1Cn1nc(-c2ccc(Oc3ccccc3)cc2F)c2c(N)ncnc21)N1CCOCC1 (centres unmarked),"Tyrosine-protein kinase BTK (BTK, Homo sapiens, UniProt Q06187)","enzyme activity, inhibitor",,"15 min preincubation, with: 16 µM ATP",,IC50,1.9 ± 0.2 nM

# Excerpt of the above (other studies, line by line):
SMILES,tested on,test,test system,conditions,how to read,measurement,result
Cc1nc(C)c(C=[N+]([O-])C(C)(C)C)nc1C,,footprint test,MPTP-induced Parkinson's disease mouse model,"30 mg/kg, mean of three trials",,corridor crossing time,6.45 s and 5.36 s and 5.06 s and 5.93 s and 5.1 s and 5.65 s and 6.09 s and 5.01 s
